Published values collected from several papers.
Compare with care: the assays were run in different laboratories. Several values in a cell are separate wells, animals, samples, runs or records. ± marks the error that the study gave.
uncharacterized protein: uncharacterized protein (Spodoptera exigua, UniProt F1CEY0)
ALB: Albumin (ALB, Homo sapiens, UniProt P02768)
Grin1 S688A with GluN2C: Glutamate receptor ionotropic, NMDA 1, with GluN2C (Grin1, Rattus norvegicus, UniProt P35439, S688A)
Chain of UniProt Q16774 (whole entry, unmodified, looked up): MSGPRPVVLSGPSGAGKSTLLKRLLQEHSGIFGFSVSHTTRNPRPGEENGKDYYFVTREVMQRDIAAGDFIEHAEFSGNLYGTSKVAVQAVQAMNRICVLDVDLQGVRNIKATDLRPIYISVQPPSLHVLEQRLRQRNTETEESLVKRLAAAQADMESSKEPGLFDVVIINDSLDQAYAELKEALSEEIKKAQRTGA
Chain of UniProt Q14524 (whole entry, looked up): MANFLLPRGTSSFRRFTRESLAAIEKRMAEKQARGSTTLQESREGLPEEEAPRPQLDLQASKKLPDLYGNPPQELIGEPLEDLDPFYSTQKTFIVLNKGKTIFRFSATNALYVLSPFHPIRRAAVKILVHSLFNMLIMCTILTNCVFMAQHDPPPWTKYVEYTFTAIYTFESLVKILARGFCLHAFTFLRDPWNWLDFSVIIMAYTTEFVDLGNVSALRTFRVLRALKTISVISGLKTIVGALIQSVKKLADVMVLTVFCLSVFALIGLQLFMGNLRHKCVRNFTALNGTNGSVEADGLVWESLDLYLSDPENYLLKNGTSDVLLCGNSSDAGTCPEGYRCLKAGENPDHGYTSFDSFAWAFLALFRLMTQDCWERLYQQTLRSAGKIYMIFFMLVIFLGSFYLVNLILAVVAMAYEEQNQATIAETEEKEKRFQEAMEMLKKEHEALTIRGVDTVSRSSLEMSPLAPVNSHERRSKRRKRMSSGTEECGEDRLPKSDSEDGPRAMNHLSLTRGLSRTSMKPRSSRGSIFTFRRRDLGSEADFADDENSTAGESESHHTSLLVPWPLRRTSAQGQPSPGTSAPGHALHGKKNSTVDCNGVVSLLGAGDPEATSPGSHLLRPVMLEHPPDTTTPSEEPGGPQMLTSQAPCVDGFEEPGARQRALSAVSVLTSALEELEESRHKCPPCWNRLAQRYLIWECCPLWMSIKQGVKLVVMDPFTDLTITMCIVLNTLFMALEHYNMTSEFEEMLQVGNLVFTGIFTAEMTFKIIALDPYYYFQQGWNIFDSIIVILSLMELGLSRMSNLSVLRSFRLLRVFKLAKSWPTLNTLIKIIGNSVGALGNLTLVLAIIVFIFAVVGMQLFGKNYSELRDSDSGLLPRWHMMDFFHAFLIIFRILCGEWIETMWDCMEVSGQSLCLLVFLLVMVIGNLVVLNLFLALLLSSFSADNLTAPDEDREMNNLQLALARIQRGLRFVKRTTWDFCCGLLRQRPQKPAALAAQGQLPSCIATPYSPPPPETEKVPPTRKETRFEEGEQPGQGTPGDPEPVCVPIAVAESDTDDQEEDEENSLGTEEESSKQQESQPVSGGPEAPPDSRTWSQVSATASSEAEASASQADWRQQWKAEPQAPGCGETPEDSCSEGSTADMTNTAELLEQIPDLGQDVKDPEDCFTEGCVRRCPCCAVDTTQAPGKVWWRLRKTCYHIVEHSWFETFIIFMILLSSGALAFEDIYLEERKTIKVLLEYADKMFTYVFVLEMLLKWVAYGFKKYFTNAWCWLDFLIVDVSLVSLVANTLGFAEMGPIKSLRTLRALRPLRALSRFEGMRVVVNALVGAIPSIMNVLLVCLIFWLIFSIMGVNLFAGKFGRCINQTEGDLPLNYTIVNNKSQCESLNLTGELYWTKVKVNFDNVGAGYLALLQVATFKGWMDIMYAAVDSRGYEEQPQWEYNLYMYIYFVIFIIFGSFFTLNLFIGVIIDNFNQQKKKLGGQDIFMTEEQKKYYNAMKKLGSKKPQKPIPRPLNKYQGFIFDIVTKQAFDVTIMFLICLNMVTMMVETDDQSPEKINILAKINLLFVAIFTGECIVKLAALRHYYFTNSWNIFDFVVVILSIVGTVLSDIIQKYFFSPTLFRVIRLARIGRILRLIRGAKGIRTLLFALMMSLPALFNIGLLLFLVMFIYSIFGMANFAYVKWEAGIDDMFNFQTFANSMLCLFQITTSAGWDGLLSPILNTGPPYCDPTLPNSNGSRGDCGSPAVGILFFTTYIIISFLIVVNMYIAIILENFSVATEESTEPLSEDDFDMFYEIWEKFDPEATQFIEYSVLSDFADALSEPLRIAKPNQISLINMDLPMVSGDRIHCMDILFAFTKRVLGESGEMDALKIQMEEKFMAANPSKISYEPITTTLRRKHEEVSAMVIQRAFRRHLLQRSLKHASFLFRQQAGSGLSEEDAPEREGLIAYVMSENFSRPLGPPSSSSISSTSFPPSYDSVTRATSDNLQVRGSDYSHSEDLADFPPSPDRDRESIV
Chain of UniProt P51575 (whole entry, unmodified, looked up): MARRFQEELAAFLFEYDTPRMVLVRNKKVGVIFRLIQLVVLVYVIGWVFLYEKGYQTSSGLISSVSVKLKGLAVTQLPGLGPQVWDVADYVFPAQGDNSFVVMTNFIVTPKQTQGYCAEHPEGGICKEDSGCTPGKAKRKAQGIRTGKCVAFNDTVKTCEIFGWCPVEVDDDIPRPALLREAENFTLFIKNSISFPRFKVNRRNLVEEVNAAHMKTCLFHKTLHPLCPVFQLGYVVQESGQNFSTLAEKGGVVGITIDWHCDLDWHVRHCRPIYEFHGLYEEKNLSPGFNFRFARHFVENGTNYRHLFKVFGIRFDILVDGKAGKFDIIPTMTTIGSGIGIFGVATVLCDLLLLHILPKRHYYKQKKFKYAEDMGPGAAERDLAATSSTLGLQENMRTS
Chain of UniProt P11388 (whole entry, looked up): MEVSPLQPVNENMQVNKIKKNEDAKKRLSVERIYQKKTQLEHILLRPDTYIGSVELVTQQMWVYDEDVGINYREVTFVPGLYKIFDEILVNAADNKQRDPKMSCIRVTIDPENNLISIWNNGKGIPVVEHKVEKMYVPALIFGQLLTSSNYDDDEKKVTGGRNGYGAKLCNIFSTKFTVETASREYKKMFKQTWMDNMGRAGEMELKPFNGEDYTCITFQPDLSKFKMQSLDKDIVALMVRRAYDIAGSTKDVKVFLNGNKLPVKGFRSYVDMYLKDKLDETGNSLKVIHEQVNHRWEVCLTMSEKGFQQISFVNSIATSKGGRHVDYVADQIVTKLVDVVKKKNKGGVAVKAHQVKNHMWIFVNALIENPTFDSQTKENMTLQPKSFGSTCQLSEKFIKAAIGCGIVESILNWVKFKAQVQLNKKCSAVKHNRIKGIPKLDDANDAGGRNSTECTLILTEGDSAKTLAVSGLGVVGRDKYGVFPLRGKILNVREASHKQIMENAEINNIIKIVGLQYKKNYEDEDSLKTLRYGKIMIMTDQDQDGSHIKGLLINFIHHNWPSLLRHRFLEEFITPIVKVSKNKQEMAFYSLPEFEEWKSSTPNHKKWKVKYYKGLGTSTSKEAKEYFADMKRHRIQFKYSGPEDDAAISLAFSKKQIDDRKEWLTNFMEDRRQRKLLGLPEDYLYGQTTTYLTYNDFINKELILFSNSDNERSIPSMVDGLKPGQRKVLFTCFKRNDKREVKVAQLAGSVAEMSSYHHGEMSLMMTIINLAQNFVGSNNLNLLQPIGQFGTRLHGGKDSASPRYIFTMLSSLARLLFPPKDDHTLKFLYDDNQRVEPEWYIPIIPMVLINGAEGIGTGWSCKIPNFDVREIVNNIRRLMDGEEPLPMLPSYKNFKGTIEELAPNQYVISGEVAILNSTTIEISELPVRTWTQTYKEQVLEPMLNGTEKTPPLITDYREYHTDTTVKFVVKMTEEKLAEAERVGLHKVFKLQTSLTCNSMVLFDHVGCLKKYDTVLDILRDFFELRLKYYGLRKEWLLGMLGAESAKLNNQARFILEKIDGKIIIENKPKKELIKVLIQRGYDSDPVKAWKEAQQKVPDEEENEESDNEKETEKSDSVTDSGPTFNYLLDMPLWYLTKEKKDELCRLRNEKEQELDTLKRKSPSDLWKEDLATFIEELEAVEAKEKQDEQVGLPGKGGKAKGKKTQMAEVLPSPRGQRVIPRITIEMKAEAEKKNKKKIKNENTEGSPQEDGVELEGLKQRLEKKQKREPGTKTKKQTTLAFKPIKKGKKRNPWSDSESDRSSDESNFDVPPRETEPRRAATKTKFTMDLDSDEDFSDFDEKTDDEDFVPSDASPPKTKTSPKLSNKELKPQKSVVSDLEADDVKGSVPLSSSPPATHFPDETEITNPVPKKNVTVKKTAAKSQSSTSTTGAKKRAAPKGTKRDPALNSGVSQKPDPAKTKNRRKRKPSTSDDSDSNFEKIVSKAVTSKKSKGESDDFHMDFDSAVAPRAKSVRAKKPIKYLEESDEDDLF
Chain of UniProt Q00535 (whole entry, looked up): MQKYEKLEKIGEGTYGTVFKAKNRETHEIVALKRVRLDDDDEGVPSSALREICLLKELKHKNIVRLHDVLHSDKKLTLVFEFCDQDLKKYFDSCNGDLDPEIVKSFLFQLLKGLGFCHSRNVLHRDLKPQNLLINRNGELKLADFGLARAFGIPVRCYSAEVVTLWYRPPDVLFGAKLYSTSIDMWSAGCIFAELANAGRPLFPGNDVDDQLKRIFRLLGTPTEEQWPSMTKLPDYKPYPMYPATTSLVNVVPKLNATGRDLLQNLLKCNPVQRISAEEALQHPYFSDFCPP

CCCCCCCCCC=O  relative fluorescence (uncharacterized protein; binding, competitor, fluorescence displacement; 20 µM, pH 7.4, with: 1-NPN 20 µM; relative to: 1-NPN alone): 58.9%
O=C(Nc1cnccc1Cl)N1CCN(Cc2ccc3c(c2)OC(F)(F)O3)CC1  number of off-targets hit (human off-target panel; 50 µM): 7
CC1(F)CN(C(=O)Cn2c(=O)c(C(=O)NCc3ccc(Cl)cc3)cc3nc(N4CCOC4=O)cnc32)C1  Hill slope (DNA polymerase catalytic subunit (Human cytomegalovirus, UniProt P08546); enzyme activity, inhibitor): 0.78
Cc1n[nH]c2ccc(-c3cc(OC[C@@H](N)Cc4ccccc4)cnc3-c3ccoc3)cc12  log2 fold change (Carbon catabolite-derepressing protein kinase (SNF1, Candida albicans, UniProt P52497); kinase binding, competitor, MIB/MS competition, measured: SNF1; Candida albicans cell lysate; 10 µM; relative to: DMSO): -1.78
O=c1cc(CO)occ1[O-].[Cl-].[W+4].c1cc[cH-]c1.c1cc[cH-]c1  Stern-Volmer quenching constant (ALB; fluorescence quenching; 310 K): 15000 L/mol
CCN(CCO)CCCC(C)Nc1ccnc2cc(Cl)ccc12 (stereo not drawn)  activation slope factor (SCN5A (Homo sapiens, UniProt Q14524); sodium current, whole-cell patch clamp; 10 µM, without ATX-II): 3.56 mV/e-fold and 1.27 mV/e-fold and 2.17 mV/e-fold
CN(C)C(=O)C(CCN1CCC(O)(c2ccc(Cl)cc2)CC1)(c1ccccc1)c1ccccc1  normalized Gmax (Calcium-activated potassium channel subunit alpha-1, with LRRC26 γ1 subunit (KCNMA1, Homo sapiens, UniProt Q12791); BK current, inhibitor, inside-out patch clamp; excised membrane patch; 10 µM, γ1 subunit coexpressed, with: nominally 0 Ca2+ cytosolic; relative to: without loperamide): 0.234
Cc1ccc(S(=O)(=O)Nc2ccc(F)cc2NS(=O)(=O)c2ccc(C)cc2)cc1  binding (biotinylated pre-let-7d RNA; SPR; up to 6.25 µM): no binding
CC[C@@H]1[C@H](F)C(=O)N[C@@H]1COc1nccc2cc(C(N)=O)c(OC)cc12  inhibition (EPHA2 (Homo sapiens, UniProt P29317); ATP probe binding, KiNativ profiling, measured: activation loop probe site; THP-1 cell lysate; 0.04 mM): -11.2%
C=CC(=O)N1CCC(COCC(=O)N2CCN(c3nc(-c4cnc(N)nc4C(F)F)nc(N4CCOC[C@@H]4C)n3)CC2)CC1  remaining binding (ULK1 (Homo sapiens, UniProt O75385); KINOMEscan; 1 µM; relative to: DMSO control): 68%
N[C@H](CNC(=O)c1ccc(-c2ccccc2Br)s1)C(=O)O  log EC50 (Grin1 S688A with GluN2C; receptor activation; rat; with: glutamate 300 µM): -2.29 µM
Nc1nc2c(ncn2[C@@H]2O[C@H](COP(=O)(O)O)[C@@H](O)[C@H]2O)c(=O)[nH]1  reaction rate (GUK1 (Homo sapiens, UniProt Q16774, S37P); enzyme activity, NADH-coupled; 62.5 µM): 0.389 s⁻¹ and 1.44 s⁻¹ and 0.447 s⁻¹
Cc1cc(-c2ccnc3[nH]cc(F)c23)cc(F)c1[C@@]1(O)[C@H](C)CN(C(=O)CN)C[C@@H]1C  probe labelling inhibition (JAK1 (Homo sapiens, UniProt P23458); ATP/ADP probe binding, KiNativ; HEK293T lysate; 10 µM, activation loop domain 2): 64.8%
COc1cc(-c2cncc3c2CN(C)Cc2cc(N4CCNCC4)ccc2-3)cc(OC)c1OC  remaining activity (Cyclin-dependent kinase 5, with p35 (CDK5, Homo sapiens, UniProt Q00535); kinase activity; 1 µM, human enzyme, with: ATP 10 µM; relative to: DMSO control): 112%
CCc1cnn2c(NCc3ccc[n+]([O-])c3)cc(N3CCCC[C@H]3CCO)nc12  chemical shift change (BRD4 (Homo sapiens, UniProt O60885); 19F NMR, measured: tyrosine 65; 47 µM; relative to: free protein): 0.043 ppm
OC[C@H]1O[C@@H](Oc2cc3c(O)cc(O)cc3[o+]c2-c2cc(O)c(O)c(O)c2)[C@H](O)[C@@H](O)[C@@H]1O  Gibbs free energy (ALB; binding, fluorescence quenching; 40 °C): -6.64 kcal/mol
Nc1ncnc2c1ncn2[C@@H]1O[C@H](COP(=O)(O)CP(=O)(O)OP(=O)(O)O)[C@@H](O)[C@H]1O  specific binding (P2X purinoceptor 1 (P2RX1, Homo sapiens, UniProt P51575, R292A); saturation binding; HEK293; 130 nM): 354 CCPM and 536 CCPM
COc1ccc(-c2cc(OCC(=O)N(C)Cc3cccnc3C)nc(-n3nc(C)cc3C)n2)cc1  trimming of SIINFEKL precursors (LNPEP (Homo sapiens, UniProt Q9UIQ6); peptide trimming, inhibitor, HPLC; up to 50 µM, 1 h, 37 °C, with: 10 µM peptide, 60 nM IRAP): no effect
Nc1ncnc2c1ncn2[C@@H]1O[C@H](COP(=O)(O)OP(=O)(O)OP(=O)(O)O)[C@@H](O)[C@H]1O  Km (CKMT1A (Homo sapiens, UniProt P12532, H99A); substrate, ADP-Glo luminescence; pH 8.5, forward reaction, H61A mutant, with: second substrate in excess): 300 ± 100 µM
CCCCCCCCCCCCCCCCCCCC  relative fluorescence (uncharacterized protein; binding, competitor, fluorescence displacement; 20 µM, pH 7.4, with: 1-NPN 20 µM; relative to: 1-NPN alone): 77.9%
CCN(CC)c1ccc2c(c1)Oc1cc(N(CC)CC)ccc1C21c2ccccc2C(=O)N1c1ccccc1C(=O)OCOC(=O)C1(C)CC1  Km (porcine liver esterase; ester hydrolysis; with: PLE 1.2 nM): ~0.12 µM
C#Cc1cccc(Oc2ccc(-c3nn([C@@H]4CCCN(C(=O)C=C)C4)c4ncnc(N)c34)cc2)c1  SILAC ratio (ALDH1A1 (Homo sapiens, UniProt P00352); ABPP-SILAC; 1 µM, 1 h; relative to: DMSO): 20
Oc1cccccc1=S  Ki ratio (CA2 (Homo sapiens, UniProt P00918, L197G); p-nitrophenyl acetate hydrolysis; relative to: wild type over L198G mutant): 1.6 fold
NCCCC(=O)O  normalised MST signal (SLC6A6 (Homo sapiens, UniProt P31641, G62A); binding, microscale thermophoresis; 500 µM, room temperature, with: 50 nM labelled protein; higher = more binding): 0.0814
CC/C=C\CCO  relative fluorescence (uncharacterized protein; binding, 1-NPN competitive displacement; protein 2.0 µM, with: 1-NPN 20 µM; relative to: 1-NPN without compound, lower = stronger binding): 81.2%
O=c1nc(SCc2cc(F)cc(C(F)(F)F)c2)nc(SCc2ccc3nc(Cl)ccc3c2)[nH]1  ATP hydrolysis rate (TOP2A (Homo sapiens, UniProt P11388); ATPase activity; 31.25 µM, with: ATP 2 mM): 1.81 µM/min and 2.48 µM/min
CCCCC[C@@H]1NC(=O)[C@@H]2C[C@@H](OCC(=O)O)CN2C(=O)[C@H](CC(=O)O)NC(=O)[C@H](Cc2ccc(O)cc2)NC(=O)[C@H](CO)NC(=O)[C@H]([C@@H](C)CC)NC(=O)[C@H](Cc2ccc(-c3ccccc3)cc2)NC(=O)[C@H](CC(C)C)NC(=O)[C@@H]2CCCN2C(=O)[C@@H](NC(=O)[C@H](CCCNC(=N)N)NC(=O)[C@H](CCCNC(=N)N)NC(C)=O)CSSC[C@@H](C(=O)N[C@@H](CCCNC(=N)N)C(=O)N[C@@H](CCCNC(=N)N)C(N)=O)NC1=O  lowest bound protein concentration (GTPase KRas, GDP-bound (KRAS, Homo sapiens, UniProt P01116, G12D); affinity selection mass spectrometry; mixture library 4, with: protein titration up to 2.5 µM; lower is stronger binding): 0.04 µM
c1coc(-c2n[nH]cc2-c2ccnc3ccccc23)c1  log2 fold change (Aurora kinase (IPL1, Candida albicans, UniProt Q59S66); kinase binding, MIB/MS competition; Candida albicans lysate; 1 µM; relative to: DMSO, negative = stronger binding): -0.25
N[C@H](CNC(=O)c1cc(Br)c(-c2ccccc2F)s1)C(=O)O  Hill slope (Grin1 S688A with GluN2C; rat; with: glutamate 300 µM): 1.22
COC(=O)c1cc(C(C)=NNc2nc(-c3ccc4c(c3)OCCCO4)cs2)ccc1O  Vmax decrease (PTPN1 (Homo sapiens, UniProt P18031); enzyme activity, inhibitor, Lineweaver-Burk kinetics; 1.5 µM; relative to: uninhibited control): 25%
